{"data": "Experimental data of several laboratories", "note": "A part holds a random share of what one study measured.", "UniProt P31645, sequence (whole entry, looked up)": "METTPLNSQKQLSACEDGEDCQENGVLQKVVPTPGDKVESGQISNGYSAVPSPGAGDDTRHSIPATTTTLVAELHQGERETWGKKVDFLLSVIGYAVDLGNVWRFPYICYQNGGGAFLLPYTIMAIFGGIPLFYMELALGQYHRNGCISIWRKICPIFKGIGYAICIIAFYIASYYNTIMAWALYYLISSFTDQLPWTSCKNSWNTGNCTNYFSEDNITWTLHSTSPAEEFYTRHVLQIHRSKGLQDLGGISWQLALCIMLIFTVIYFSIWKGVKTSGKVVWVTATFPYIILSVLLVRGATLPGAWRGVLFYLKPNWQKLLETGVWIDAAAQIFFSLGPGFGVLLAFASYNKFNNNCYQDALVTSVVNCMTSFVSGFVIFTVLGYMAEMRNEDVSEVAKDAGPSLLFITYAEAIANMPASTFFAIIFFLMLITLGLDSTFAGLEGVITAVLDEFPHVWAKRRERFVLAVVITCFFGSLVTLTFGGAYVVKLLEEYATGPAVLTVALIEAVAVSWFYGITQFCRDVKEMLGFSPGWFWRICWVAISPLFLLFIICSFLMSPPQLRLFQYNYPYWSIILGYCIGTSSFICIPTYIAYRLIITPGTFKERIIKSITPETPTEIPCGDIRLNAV", "UniProt Q9UM73, sequence (whole entry, looked up)": "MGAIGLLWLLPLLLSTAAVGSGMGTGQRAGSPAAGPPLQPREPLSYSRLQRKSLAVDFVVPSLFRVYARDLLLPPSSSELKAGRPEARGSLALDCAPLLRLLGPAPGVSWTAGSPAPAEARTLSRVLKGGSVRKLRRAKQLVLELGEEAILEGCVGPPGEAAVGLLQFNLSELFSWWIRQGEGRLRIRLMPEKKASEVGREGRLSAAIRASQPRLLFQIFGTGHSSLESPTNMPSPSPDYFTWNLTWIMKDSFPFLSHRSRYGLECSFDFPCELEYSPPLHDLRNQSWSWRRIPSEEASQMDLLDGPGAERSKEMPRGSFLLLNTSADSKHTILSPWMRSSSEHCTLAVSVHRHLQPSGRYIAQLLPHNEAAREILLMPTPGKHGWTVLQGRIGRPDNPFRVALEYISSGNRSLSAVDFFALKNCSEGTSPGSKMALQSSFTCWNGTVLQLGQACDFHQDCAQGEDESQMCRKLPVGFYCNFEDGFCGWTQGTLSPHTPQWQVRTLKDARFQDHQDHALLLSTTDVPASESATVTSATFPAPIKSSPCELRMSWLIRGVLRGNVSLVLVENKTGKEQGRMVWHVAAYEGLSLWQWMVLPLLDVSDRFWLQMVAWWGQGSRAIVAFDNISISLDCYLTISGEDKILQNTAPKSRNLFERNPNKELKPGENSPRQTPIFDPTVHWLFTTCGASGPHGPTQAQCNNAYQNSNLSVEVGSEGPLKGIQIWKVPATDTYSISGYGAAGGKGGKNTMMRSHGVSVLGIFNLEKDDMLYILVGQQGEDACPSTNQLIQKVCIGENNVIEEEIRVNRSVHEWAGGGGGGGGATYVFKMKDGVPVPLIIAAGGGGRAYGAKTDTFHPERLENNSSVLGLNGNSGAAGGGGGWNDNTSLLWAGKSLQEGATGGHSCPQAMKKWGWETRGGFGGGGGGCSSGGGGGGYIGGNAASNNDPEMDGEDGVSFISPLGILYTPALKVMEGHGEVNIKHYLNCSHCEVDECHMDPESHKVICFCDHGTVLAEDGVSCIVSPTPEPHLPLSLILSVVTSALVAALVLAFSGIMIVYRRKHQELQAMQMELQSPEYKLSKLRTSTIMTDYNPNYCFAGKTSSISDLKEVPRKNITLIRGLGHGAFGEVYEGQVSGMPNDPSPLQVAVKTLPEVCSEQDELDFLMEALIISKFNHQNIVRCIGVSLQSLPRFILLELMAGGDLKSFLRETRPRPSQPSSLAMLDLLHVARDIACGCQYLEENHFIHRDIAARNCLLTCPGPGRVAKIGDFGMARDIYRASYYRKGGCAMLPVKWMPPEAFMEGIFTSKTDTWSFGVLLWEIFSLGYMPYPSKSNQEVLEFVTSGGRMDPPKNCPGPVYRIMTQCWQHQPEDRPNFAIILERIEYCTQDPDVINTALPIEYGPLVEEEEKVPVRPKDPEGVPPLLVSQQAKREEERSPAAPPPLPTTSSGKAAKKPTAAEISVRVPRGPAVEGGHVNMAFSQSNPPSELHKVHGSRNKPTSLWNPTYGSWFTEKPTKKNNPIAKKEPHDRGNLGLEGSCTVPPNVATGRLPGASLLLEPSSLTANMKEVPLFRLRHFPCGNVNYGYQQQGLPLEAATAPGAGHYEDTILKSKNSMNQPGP", "UniProt P54764, sequence (whole entry, looked up)": "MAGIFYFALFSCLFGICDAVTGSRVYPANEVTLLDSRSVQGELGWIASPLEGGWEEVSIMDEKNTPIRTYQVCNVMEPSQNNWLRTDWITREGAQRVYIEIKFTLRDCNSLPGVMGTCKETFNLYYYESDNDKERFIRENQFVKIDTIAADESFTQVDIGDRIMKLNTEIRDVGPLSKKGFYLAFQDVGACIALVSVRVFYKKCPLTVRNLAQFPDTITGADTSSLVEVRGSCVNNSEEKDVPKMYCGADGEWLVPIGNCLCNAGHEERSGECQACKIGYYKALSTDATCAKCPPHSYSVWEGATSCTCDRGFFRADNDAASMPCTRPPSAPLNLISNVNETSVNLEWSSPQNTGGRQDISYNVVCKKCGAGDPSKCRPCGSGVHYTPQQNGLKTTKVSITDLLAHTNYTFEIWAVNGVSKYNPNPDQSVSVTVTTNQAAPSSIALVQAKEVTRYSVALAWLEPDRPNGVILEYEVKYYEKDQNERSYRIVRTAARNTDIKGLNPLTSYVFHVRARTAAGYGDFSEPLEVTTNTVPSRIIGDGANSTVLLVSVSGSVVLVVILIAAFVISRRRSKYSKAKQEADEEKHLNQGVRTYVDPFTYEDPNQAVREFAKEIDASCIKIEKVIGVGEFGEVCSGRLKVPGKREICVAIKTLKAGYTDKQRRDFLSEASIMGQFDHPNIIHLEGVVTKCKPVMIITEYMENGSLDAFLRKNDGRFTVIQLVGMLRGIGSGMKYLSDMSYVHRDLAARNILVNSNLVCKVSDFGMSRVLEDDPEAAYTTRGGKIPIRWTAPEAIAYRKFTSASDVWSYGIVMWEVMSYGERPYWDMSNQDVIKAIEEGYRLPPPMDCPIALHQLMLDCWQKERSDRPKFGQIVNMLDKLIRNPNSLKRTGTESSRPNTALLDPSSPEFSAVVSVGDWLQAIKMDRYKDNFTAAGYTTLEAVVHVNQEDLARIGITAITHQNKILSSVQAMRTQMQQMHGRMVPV", "UniProt O14965, sequence (whole entry, looked up)": "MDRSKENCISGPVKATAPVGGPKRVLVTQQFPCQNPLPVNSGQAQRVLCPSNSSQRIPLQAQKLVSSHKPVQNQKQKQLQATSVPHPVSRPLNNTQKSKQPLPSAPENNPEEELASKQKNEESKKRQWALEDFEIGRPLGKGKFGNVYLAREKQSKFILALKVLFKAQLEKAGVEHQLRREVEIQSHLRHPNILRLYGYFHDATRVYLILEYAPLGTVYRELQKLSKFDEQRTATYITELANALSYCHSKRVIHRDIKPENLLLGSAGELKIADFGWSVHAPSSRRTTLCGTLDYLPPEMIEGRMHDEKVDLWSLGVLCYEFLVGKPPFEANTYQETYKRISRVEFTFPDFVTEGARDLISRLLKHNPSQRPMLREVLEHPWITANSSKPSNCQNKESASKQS", "UniProt P21802, sequence (whole entry, looked up)": "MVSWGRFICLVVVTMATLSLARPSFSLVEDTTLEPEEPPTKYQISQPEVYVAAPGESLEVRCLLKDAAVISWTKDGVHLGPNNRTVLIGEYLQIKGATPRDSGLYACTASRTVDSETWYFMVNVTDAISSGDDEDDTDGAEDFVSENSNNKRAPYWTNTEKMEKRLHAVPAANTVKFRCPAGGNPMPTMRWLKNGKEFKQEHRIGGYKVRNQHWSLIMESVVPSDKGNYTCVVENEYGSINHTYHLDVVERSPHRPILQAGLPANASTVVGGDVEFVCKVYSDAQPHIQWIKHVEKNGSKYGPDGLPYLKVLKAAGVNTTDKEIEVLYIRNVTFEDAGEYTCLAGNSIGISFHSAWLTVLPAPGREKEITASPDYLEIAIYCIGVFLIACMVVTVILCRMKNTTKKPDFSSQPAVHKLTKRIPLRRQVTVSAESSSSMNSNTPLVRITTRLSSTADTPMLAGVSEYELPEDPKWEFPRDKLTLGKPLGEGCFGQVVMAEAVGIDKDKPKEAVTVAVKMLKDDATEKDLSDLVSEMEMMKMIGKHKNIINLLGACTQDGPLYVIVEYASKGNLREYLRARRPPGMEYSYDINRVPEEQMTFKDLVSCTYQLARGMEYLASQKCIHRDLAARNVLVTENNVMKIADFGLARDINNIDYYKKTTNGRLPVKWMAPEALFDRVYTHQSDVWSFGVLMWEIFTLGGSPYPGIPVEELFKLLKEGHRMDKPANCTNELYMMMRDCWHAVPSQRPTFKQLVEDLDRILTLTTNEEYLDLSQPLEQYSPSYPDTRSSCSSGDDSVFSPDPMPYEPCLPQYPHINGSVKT"}
{"data": "Sample 1", "cell line": "mouse MPNST tumor cells", "technique": "high-content immunofluorescence imaging", "item": "nuclear SOX9", "tested at": "10 µM", "time": "12 h", "setting": "mean of 2 replicates", "reference": "DMSO control", "reading": "higher = more nuclear SOX9"}
{"Compound": "CN(C)NC(=O)CCC(=O)O", "nuclear SOX9 intensity": "91.3 % of DMSO"}
{"Compound": "Cc1cc(C(C#N)c2ccc(Cl)cc2)c(Cl)cc1NC(=O)c1cc(I)cc(I)c1O (stereo not shown)", "nuclear SOX9 intensity": "110 % of DMSO"}
{"Compound": "Cc1sc2c(c1C)C(c1ccc(Cl)cc1)=N[C@@H](CC(=O)Nc1ccc(O)cc1)c1nnc(C)n1-2", "nuclear SOX9 intensity": "132 % of DMSO"}
{"data": "Sample 2", "SMILES": "CNC(=O)c1ccc(-c2cnn3ccc(C(=O)N(C)c4ccc(Cl)c(C(=O)OC)c4)cc23)cc1"}
{"target": "ALK tyrosine kinase receptor (ALK, Homo sapiens, UniProt Q9UM73)", "effect on": "enzyme activity", "mode": "inhibitor", "IC50": "> 30 µM"}
{"target": "Ephrin type-A receptor 4 (EPHA4, Homo sapiens, UniProt P54764)", "effect on": "enzyme activity", "mode": "inhibitor", "IC50": "> 30 µM"}
{"target": "Fibroblast growth factor receptor 2 (FGFR2, Homo sapiens, UniProt P21802)", "effect on": "enzyme activity", "mode": "inhibitor", "IC50": "> 30 µM"}
{"target": "D(3) dopamine receptor (DRD3, Homo sapiens, UniProt P35462)", "effect on": "cell-free assay", "IC50": "> 30 µM"}
{"target": "Dual specificity mitogen-activated protein kinase kinase 3 (MAP2K3, Homo sapiens, UniProt P46734)", "effect on": "enzyme activity", "mode": "inhibitor", "IC50": "> 30 µM"}
{"target": "Alpha-2A adrenergic receptor (ADRA2A, Homo sapiens, UniProt P08913)", "effect on": "cell-free assay", "IC50": "> 30 µM"}
{"target": "Sodium-dependent serotonin transporter (SLC6A4, Homo sapiens, UniProt P31645)", "effect on": "cell-free assay", "IC50": "29.8 µM"}
{"target": "Aurora kinase A (AURKA, Homo sapiens, UniProt O14965)", "effect on": "enzyme activity", "mode": "inhibitor", "IC50": "> 30 µM"}
{"target": "Mitogen-activated protein kinase 14 (MAPK14, Homo sapiens, UniProt Q16539)", "effect on": "enzyme activity", "mode": "inhibitor", "IC50": "> 30 µM"}
{"data": "Sample 3", "cell line": "Huh-7", "tested at": "10 µM", "time": "24 h"}
{"SMILES": "O=P1(N(CCCl)CCCl)NCCCO1 (stereo not shown)", "viability": "98.3%"}
{"SMILES": "CCCCOC(=O)c1ccccc1C(=O)OCCCC", "viability": "97.8%"}
{"SMILES": "CCCC(C)(COC(N)=O)COC(=O)NC(C)C (stereo not shown)", "viability": "93.8%"}
{"SMILES": "CCOC(=O)CC(SP(=S)(OC)OC)C(=O)OCC (stereo not shown)", "viability": "92.5%"}
{"SMILES": "Cc1cc(O)ccc1Cl", "viability": "104%"}
{"SMILES": "CC(NC(C)(C)C)C(=O)c1cccc(Cl)c1 (stereo not shown)", "viability": "101%"}
{"data": "Further values, each from its own experiment", "effect on": "cell-free assay", "technique": "competition with immobilised ligand", "tested at": "1 µM", "pknB": "Serine/threonine-protein kinase PknB (pknB, Mycobacterium tuberculosis, UniProt P9WI81)", "UniProt P9WI81, sequence (whole entry, looked up)": "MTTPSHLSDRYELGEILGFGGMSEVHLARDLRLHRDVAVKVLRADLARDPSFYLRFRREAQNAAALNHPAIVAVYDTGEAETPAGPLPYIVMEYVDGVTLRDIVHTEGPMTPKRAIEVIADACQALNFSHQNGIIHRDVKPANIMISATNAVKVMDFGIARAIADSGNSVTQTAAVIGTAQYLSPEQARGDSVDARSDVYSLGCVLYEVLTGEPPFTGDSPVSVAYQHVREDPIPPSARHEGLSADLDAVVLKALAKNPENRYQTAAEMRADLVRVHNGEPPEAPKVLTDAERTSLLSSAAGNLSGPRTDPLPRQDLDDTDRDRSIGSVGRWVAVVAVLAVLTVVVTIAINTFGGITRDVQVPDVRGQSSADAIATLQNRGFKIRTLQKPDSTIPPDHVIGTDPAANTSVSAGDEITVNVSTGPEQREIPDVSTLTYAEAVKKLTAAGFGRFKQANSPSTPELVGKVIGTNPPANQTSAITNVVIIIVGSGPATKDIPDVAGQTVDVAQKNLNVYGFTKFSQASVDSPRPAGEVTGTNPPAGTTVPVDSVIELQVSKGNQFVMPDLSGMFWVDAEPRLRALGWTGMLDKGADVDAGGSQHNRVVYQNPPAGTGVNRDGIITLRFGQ"}
{"Compound": "O=S(=O)(NC1CCC(c2cc(F)ccc2F)(S(=O)(=O)c2ccc(Cl)cc2)CC1)C(F)(F)F (stereo not shown)", "target": "Calcium-dependent protein kinase 1 (CDPK1, Plasmodium falciparum, UniProt P62344)", "remaining binding": "100%"}
{"Compound": "Cc1nc(C2CCN(C(=O)c3ccc(OC(F)(F)F)cc3N)CC2)c2ncc(N3CCN(C)CC3)cc2n1", "target": "pknB", "remaining binding": "100%"}
{"Compound": "C[C@@]1(Cc2ccc(C#N)cc2)C(=O)N(c2cc(Cl)cc(Cl)c2)c2ncc(C(=O)NC3(c4nc(C5CCC5)no4)CC3)n21", "target": "pknB", "remaining binding": "96%"}
{"Compound": "Cc1cc(-n2nc(Cc3cc(F)cc(C(F)(F)F)c3)nc2C)ccc1C(N)=O", "target": "Cyclin-dependent kinase 2 homolog (CRK2, Plasmodium falciparum, UniProt P61075)", "remaining binding": "100%"}
{"note": "For quick reference, copied from above (further values, each from its own experiment):"}
{"Compound": "O=S(=O)(NC1CCC(c2cc(F)ccc2F)(S(=O)(=O)c2ccc(Cl)cc2)CC1)C(F)(F)F (stereo not shown)", "target": "Calcium-dependent protein kinase 1 (CDPK1, Plasmodium falciparum, UniProt P62344)", "remaining binding": "100%"}
{"Compound": "Cc1nc(C2CCN(C(=O)c3ccc(OC(F)(F)F)cc3N)CC2)c2ncc(N3CCN(C)CC3)cc2n1", "target": "pknB", "remaining binding": "100%"}
